Results pooled from the literature.
Several values in a cell are separate wells, animals, samples, runs or records. ± marks the error that the study gave.
BPTF bromodomain: Nucleosome-remodeling factor subunit BPTF, bromodomain (BPTF, Homo sapiens, UniProt Q12830)
LGALS9 N-terminal CRD: Galectin-9, N-terminal CRD (LGALS9, Homo sapiens, UniProt O00182)

SMILES	target	test	system	setting	Kd
C[n+]1ccc(/C=N/NC(=O)c2cncc(C(=O)N/N=C/c3cc[n+](C)c4ccccc34)n2)c2ccccc21	G-quadruplex DNA myc22	fluorimetric titration	–	pH 7.2, 100 mM KCl, together with: Cy5-labelled DNA 2 nM	0.0139 ± 0.0014 µM
CC(=O)NCCCC[C@H](NC(=O)CNC(=O)[C@H](CO)NC(=O)[C@H](CC(=O)O)NC(=O)[C@H](CCCCN)NC(=O)CNC(=O)[C@H](C)NC(=O)[C@H](CCCCN)NC(=O)CNC(=O)CNC(=O)[C@H](C)NC(=O)[C@@H](N)Cc1ccc(O)cc1)C(=O)N[C@@H](C)C(=O)N[C@@H](CCCCN)C(=O)N[C@@H](C)C(=O)N[C@@H](CCCCN)C(=O)N[C@@H](C)C(=O)N[C@H](C(=O)N[C@@H](CO)C(=O)N[C@@H](CCCNC(=N)N)C(N)=O)C(C)C	BPTF bromodomain	bromodomain binding, PrOF NMR titration	–	pH 7.4, 5-fluorotryptophan-labelled bromodomain, 40-50 µM	1360 µM
Cc1cc2nc(NC(=O)C3CC3)sc2c(C)c1Oc1ccc(F)c(NC(=O)Cc2cccc(C(F)(F)F)c2)c1	Receptor-interacting serine/threonine-protein kinase 3 (RIPK3, Homo sapiens, UniProt Q9Y572)	binding, competition with immobilised ligand	–	–	> 5 µM
Oc1c(I)cc(I)cc1CN1CCC(N2CCC(O)CC2)CC1	Cellular tumor antigen p53 (TP53, Homo sapiens, UniProt P04637, M133L/N239Y/N268D/V203A/Y220C)	–	–	20 °C, protein 75 µM	87 ± 17 µM
OC[C@H]1Oc2c(I)c(I)cc3c2[C@@H](OC3)[C@H]1O	LGALS9 N-terminal CRD	binding, competitive fluorescence polarization	–	20 °C, galectin-9 N-terminal domain 1.0 µM	> 1000 µM
CCc1nc(-c2cccc(NC(=O)c3cccc(OC)c3)c2)no1	Cystathionine gamma-synthase 1, chloroplastic (CGS1, Arabidopsis thaliana, UniProt P55217)	binding, microscale thermophoresis	–	–	17.8 µM
CC(C)C[C@H](NC(=O)[C@@H]1CSSC[C@H](NC(=O)[C@@H]2CCCN2C(=O)[C@@H](N)CC(C)C)C(=O)N[C@@H](CC(=O)O)C(=O)N[C@@H](Cc2ccc(O)cc2)C(=O)N[C@@H](Cc2ccc(O)cc2)C(=O)NCC(=O)N[C@@H]([C@@H](C)O)C(=O)N1)C(=O)N[C@@H](CC(=O)O)C(N)=O	FGA/FGB/FGG (Homo sapiens, UniProt P02671+P02675+P02679)	isothermal titration calorimetry	–	–	> 20 µM
OC[C@H]1Oc2cc(Cc3ccc(F)cc3)cc3c2[C@@H](OC3)[C@H]1O	LGALS9 N-terminal CRD	binding, competitive fluorescence polarization	–	20 °C, galectin-9 N-terminal domain 1.0 µM	> 1000 µM
CCNC(=O)[C@H](C)NC(=O)c1cccc(-c2c(C)noc2C)c1	Bromodomain-containing protein 4, BD1 (BRD4, Homo sapiens, UniProt O60885)	binding, SPR	–	–	15 µM
C#CCN(CC(=O)N(CCOC)CC(=O)N(CCOC)CC(N)=O)C(=O)CN(CCOC)C(=O)CN(CCCOC)C(=O)CN(Cc1ccc(F)cc1)C(=O)[C@H](C)N(CC1CC1)C(=O)[C@H](C)NCc1ccc(S(N)(=O)=O)cc1	Matrix metalloproteinase-14 (MMP14, Homo sapiens, UniProt P50281)	binding, FP	–	–	1.1 µM
CC1=C(/C=C/C=C\C=C\C(C)=C\C=O)C(C)(C)CCC1	Rhodopsin, apoprotein (opsin) (RHO, Bos taurus, UniProt P02699)	Trp fluorescence quenching	opsin membranes	titration up to 1 µM	0.0091 µM
CC(=O)NCCCC[C@H](NC(=O)CNC(=O)[C@H](CO)NC(=O)[C@H](CC(=O)O)NC(=O)[C@H](CCCCN)NC(=O)CNC(=O)[C@H](C)NC(=O)[C@H](CCCCN)NC(=O)CNC(=O)CNC(=O)[C@H](C)NC(=O)[C@@H](N)Cc1ccc(O)cc1)C(=O)N[C@@H](C)C(=O)N[C@@H](CCCCNC(C)=O)C(=O)N[C@@H](C)C(=O)N[C@@H](CCCCN)C(=O)N[C@@H](C)C(=O)N[C@H](C(=O)N[C@@H](CO)C(=O)N[C@@H](CCCNC(=N)N)C(N)=O)C(C)C	BPTF bromodomain	bromodomain binding, PrOF NMR titration	–	pH 7.4, 5-fluorotryptophan-labelled bromodomain, 40-50 µM	790 µM
Cc1cc(N2CC[C@@](C#N)(C3(C)CC3)C2=O)cc(C(=O)NCc2cc(F)cc(-c3cnn(C)c3)c2)n1	Proline--tRNA ligase (Plasmodium falciparum, UniProt Q8I5R7)	binding, microscale thermophoresis	–	–	0.258 µM and 0.318 µM
COc1cc(-c2nc3ccc(C(=O)NCCCN4CCN(c5cccc(C)c5C)CC4)cc3n2C2CCC2)cc(OC)c1OC	Bone morphogenetic protein receptor type-1B (BMPR1B, Homo sapiens, UniProt O00238)	cell-free assay, TR-FRET	–	–	0.301 µM
O=C(O)CCc1ccc(O)cc1	p-hydroxyphenylacetate 3-hydroxylase, reductase component (C1-hpah, Acinetobacter baumannii, UniProt Q6Q271)	ITC	–	pH 7, together with: 1 mM FMN	174 ± 6.5 µM
O=P(O)(O)O[C@@H]1[C@@H](O)[C@H](O)[C@H](O)[C@H](O)[C@H]1OP(=O)(O)O	Inositol 1,4,5-trisphosphate-gated calcium channel ITPR1, IP3-binding core (Itpr1, Rattus norvegicus, UniProt P29994)	binding, radioligand competition binding	–	IP3-binding core, CLM medium, together with: [3H]IP3	0.427 µM
CCc1cc2c3c(c1CC)O[C@H](CO)[C@H](O)[C@@H]3OC2	Galectin-1 (LGALS1, Homo sapiens, UniProt P09382)	ligand displacement, FP	–	–	2900 µM
CC(=O)NCCCC[C@H](NC(=O)CNC(=O)CNC(=O)[C@H](C)NC(=O)[C@@H](N)Cc1ccc(O)cc1)C(=O)N[C@@H](C)C(=O)NCC(=O)N[C@@H](CCCCN)C(=O)N[C@@H](CC(=O)O)C(=O)N[C@@H](CO)C(=O)NCC(=O)N[C@@H](CCCCN)C(=O)N[C@@H](C)C(=O)N[C@@H](CCCCNC(C)=O)C(=O)N[C@H](C(=O)N[C@@H](CCCCN)C(=O)N[C@@H](C)C(=O)N[C@H](C(=O)N[C@@H](CO)C(=O)N[C@@H](CCCNC(=N)N)C(N)=O)C(C)C)[C@@H](C)O	BPTF bromodomain	bromodomain binding, PrOF NMR titration	–	pH 7.4, 5-fluorotryptophan-labelled bromodomain, 40-50 µM	780 µM
CC(C)C[C@H](NC(=O)CNC(=O)[C@H](CC(C)C)NC(=O)[C@@H](N)CCC(=O)O)C(=O)N[C@H](C(=O)N1CCC[C@H]1C(=O)N[C@@H](COP(=O)(O)O)C(=O)N1CCC[C@H]1C(=O)N[C@@H](C)C(=O)N[C@@H](CO)C(=O)N[C@@H](CC(C)C)C(=O)N[C@@H](Cc1c[nH]c2ccccc12)C(=O)N1CCC[C@H]1C(=O)N1CCC[C@H]1C(=O)N1CCC[C@H]1C(=O)N1CCC[C@H]1C(=O)N[C@@H](CO)C(=O)N1CCC[C@H]1C(=O)N[C@@H](C)C(=O)N1CCC[C@H]1C(=O)N[C@@H](CO)C(=O)N[C@@H](CO)C(=O)N[C@H](C(=O)N[C@@H](CCCCN)C(=O)O)[C@@H](C)O)C(C)C	Peptidyl-prolyl cis-trans isomerase NIMA-interacting 1, WW domain (PIN1, Homo sapiens, UniProt Q13526)	binding, NMR titration	isolated WW domain	pH 6.8, 25 °C	385 ± 96 µM
Cc1ccc(NC(=O)c2c(C)oc3ccc(O)c(CN4CCCCCC4)c23)cc1	mutant MYC DNA, no G-quadruplex	surface plasmon resonance	–	–	12.7 µM
CC[C@H](C)[C@H](NC(=O)[C@H](CCCCN)NC(=O)[C@H](CCCCN)NC(=O)[C@@H](NC(=O)[C@H](CCC(=O)O)NC(=O)[C@H](CCC(=O)O)NC(=O)[C@H](CCC(=O)O)NC(=O)[C@H](CO)NC(=O)[C@H](CC(C)C)NC(=O)[C@H](CC(=O)O)NC(=O)[C@H](CC(C)C)NC(=O)CNC(=O)[C@H](CCCNC(=N)N)NC(=O)[C@H](CC(C)C)NC(=O)[C@H](CO)NC(=O)CNC(=O)CNC(=O)CNC(=O)CCCC[C@@H]1SC[C@@H]2NC(=O)N[C@@H]21)C(C)C)C(=O)N[C@@H](CC(C)C)C(=O)N[C@@H](CC(=O)O)C(=O)N[C@@H](CCC(=O)O)C(=O)N[C@H](C(=O)N[C@H](C(=O)N[C@@H](CCCCN)C(=O)N[C@@H](CC(=O)O)C(=O)N[C@@H](C)C(=O)N[C@@H](CO)C(=O)N[C@@H](CC(=O)O)C(=O)O)C(C)C)[C@@H](C)CC	Fab B11 antibody (human)	binding, biolayer interferometry	–	together with: biotinylated peptide on tips	0.02 ± 0.001 µM
CC(=O)NCCCC[C@H](NC(=O)[C@H](CCCCN)NC(=O)[C@H](Cc1c[nH]cn1)NC(=O)[C@H](CCCNC(=N)N)NC(C)=O)C(=O)Nc1ccc2c(C)cc(=O)oc2c1	NAD-dependent protein deacetylase sirtuin-1 (SIRT1, Homo sapiens, UniProt Q96EB6, C253S/C268S/C501S/C502S/del513-640)	peptide binding, isothermal titration calorimetry	–	pH 7.5, 25 °C, together with: resveratrol 0.5 mM	7.3 µM
N#Cc1cnc2sc(C(=O)O)cc2c1N1CCc2[nH]nc(C(=O)N[C@@H](CC(=O)NCCOCCN3CCOCC3)c3cccc(Br)c3)c2C1	Interleukin-1 receptor-like 2, D1-D3 domains (IL1RL2, Homo sapiens, UniProt Q9HB29)	SPR	–	IL-36R D1-D3 extracellular domain	0.105 µM
[N-]=[N+]=NCCOC1OC(CO)C(OC2OC(COC3(C(=O)O)CC(O)C(NC(=O)OCc4cn(C(c5ccccc5)c5ccccc5)nn4)C(C(O)C(O)CO)O3)C(O)C(O)C2O)C(O)C1O (stereo not shown)	Sialic acid-binding Ig-like lectin 9, V-set domain (SIGLEC9, Homo sapiens, UniProt Q9Y336, C36S)	–	Siglec-9 domain 1	pH 7.4, 293 K	34 ± 5 µM
C[C@H](OP(=O)(O)O)[C@H]1NC(=O)CN(C)C(=O)[C@@H](C)NC(=O)[C@H](CCC(=O)N[C@@H](CCCCN)C(N)=O)NC(=O)[C@H](Cc2ccc(O)cc2)NC(=O)[C@H](Cc2ccc3ccccc3c2)NC(=O)[C@@H]2CCCCN2C1=O	Peptidyl-prolyl cis-trans isomerase NIMA-interacting 1 (PIN1, Homo sapiens, UniProt Q13526, S16A/Y23A)	binding, fluorescence anisotropy	–	–	0.258 ± 0.066 µM

Excerpt of the above:
SMILES	target	test	system	setting	Kd
C[n+]1ccc(/C=N/NC(=O)c2cncc(C(=O)N/N=C/c3cc[n+](C)c4ccccc34)n2)c2ccccc21	G-quadruplex DNA myc22	fluorimetric titration	–	pH 7.2, 100 mM KCl, together with: Cy5-labelled DNA 2 nM	0.0139 ± 0.0014 µM
[N-]=[N+]=NCCOC1OC(CO)C(OC2OC(COC3(C(=O)O)CC(O)C(NC(=O)OCc4cn(C(c5ccccc5)c5ccccc5)nn4)C(C(O)C(O)CO)O3)C(O)C(O)C2O)C(O)C1O (stereo not shown)	Sialic acid-binding Ig-like lectin 9, V-set domain (SIGLEC9, Homo sapiens, UniProt Q9Y336, C36S)	–	Siglec-9 domain 1	pH 7.4, 293 K	34 ± 5 µM
CC(=O)NCCCC[C@H](NC(=O)CNC(=O)[C@H](CO)NC(=O)[C@H](CC(=O)O)NC(=O)[C@H](CCCCN)NC(=O)CNC(=O)[C@H](C)NC(=O)[C@H](CCCCN)NC(=O)CNC(=O)CNC(=O)[C@H](C)NC(=O)[C@@H](N)Cc1ccc(O)cc1)C(=O)N[C@@H](C)C(=O)N[C@@H](CCCCN)C(=O)N[C@@H](C)C(=O)N[C@@H](CCCCN)C(=O)N[C@@H](C)C(=O)N[C@H](C(=O)N[C@@H](CO)C(=O)N[C@@H](CCCNC(=N)N)C(N)=O)C(C)C	BPTF bromodomain	bromodomain binding, PrOF NMR titration	–	pH 7.4, 5-fluorotryptophan-labelled bromodomain, 40-50 µM	1360 µM
